Measurements from different studies.
Lines come from different studies, so protocols differ.
Sequence of UniProt O96017 (whole entry, looked up): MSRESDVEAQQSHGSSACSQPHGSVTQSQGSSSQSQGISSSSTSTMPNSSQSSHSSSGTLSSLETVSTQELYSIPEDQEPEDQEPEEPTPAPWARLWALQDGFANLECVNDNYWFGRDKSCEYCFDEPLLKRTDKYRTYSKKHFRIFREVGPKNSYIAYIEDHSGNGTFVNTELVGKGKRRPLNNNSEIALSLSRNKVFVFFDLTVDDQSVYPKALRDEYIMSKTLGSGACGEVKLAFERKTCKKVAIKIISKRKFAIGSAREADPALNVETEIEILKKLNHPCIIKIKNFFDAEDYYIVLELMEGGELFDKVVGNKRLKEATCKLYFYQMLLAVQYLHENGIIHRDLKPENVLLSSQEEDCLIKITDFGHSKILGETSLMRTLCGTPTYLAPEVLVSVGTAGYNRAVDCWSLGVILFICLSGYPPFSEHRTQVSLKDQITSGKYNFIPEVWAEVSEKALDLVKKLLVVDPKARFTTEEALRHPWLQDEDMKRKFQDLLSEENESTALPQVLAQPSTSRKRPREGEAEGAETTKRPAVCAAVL
Sequence of UniProt P21333 (whole entry, looked up): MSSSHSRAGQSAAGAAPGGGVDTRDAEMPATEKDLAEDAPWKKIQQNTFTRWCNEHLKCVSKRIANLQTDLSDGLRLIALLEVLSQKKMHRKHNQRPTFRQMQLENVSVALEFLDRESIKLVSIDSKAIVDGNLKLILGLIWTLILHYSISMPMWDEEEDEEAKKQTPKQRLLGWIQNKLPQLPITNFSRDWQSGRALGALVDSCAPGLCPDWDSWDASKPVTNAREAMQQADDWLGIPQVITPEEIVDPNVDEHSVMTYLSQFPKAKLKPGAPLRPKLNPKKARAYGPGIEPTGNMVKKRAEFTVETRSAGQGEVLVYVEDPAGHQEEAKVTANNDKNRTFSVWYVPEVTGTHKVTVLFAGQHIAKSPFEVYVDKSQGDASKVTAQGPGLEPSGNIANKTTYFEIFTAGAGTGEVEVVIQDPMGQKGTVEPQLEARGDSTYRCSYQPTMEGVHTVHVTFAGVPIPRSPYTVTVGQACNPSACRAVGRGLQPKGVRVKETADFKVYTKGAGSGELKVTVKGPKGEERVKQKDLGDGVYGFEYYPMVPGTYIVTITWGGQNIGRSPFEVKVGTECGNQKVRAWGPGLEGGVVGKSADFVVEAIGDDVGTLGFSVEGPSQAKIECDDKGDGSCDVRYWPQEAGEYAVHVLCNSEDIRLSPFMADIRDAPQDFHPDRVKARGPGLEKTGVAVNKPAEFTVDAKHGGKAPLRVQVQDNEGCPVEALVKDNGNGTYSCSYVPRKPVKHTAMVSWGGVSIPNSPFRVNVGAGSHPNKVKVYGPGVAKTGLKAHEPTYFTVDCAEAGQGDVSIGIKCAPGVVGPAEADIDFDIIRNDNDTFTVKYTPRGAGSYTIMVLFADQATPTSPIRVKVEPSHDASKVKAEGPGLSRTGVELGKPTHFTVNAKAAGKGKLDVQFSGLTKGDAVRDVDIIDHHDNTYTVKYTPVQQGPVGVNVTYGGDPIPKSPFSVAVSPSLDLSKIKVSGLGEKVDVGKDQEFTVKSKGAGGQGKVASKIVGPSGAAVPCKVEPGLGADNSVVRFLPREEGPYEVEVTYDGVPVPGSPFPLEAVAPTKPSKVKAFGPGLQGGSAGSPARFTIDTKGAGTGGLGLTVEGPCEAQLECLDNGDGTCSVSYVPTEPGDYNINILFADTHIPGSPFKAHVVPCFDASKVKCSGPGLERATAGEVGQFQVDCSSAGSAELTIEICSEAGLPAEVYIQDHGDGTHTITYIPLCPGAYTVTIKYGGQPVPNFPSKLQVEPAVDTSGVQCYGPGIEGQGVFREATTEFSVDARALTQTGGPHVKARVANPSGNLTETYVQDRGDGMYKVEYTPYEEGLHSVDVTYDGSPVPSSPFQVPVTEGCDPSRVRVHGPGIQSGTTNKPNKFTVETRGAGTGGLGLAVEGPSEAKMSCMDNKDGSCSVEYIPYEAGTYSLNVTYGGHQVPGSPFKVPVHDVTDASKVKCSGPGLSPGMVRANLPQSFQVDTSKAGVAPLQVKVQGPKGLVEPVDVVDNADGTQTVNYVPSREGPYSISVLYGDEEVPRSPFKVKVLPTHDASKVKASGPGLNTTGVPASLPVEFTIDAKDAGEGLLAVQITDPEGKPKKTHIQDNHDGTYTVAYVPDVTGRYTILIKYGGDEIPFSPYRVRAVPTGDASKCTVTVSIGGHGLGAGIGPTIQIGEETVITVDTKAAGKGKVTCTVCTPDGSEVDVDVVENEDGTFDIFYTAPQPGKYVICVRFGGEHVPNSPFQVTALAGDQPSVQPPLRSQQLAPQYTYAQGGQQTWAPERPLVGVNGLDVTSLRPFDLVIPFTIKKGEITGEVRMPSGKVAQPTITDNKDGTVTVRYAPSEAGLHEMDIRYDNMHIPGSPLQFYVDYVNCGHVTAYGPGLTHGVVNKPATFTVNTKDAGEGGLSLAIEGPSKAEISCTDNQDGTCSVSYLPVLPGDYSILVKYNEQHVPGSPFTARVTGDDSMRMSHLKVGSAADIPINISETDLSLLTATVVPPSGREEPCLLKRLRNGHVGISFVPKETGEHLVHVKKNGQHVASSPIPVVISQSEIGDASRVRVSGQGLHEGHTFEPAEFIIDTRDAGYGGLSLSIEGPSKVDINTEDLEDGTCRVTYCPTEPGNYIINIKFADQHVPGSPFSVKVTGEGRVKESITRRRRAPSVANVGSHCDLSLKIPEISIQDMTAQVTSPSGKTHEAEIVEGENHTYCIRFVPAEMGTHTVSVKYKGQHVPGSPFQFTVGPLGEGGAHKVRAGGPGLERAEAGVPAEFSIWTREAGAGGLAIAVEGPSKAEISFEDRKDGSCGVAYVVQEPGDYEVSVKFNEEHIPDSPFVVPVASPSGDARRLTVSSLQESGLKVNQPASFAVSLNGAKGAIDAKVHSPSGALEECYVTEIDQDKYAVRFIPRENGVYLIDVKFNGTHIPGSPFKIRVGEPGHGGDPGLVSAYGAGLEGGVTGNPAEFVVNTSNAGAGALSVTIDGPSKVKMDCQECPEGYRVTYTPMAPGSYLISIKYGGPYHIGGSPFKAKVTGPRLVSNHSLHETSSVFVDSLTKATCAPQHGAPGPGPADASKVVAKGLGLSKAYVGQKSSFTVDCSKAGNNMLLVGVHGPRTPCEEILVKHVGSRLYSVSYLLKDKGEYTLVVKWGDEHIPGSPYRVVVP

Structure (SMILES) = O=c1ccc2ccccc2o1; tested on = HepG2; assay = refers to: cell count; conditions = concentration not given, 1 h, metal stress panel; measurement = probability of response; value = 0.04%
Structure (SMILES) = COc1ccc(N2C(=O)N(c3c(C)cccc3Cl)Cc3cnc(Nc4ccc(C5CCN(C)CC5)cc4OC)nc32)nc1; tested on = CHEK2 (Homo sapiens, UniProt O96017); assay = kinase activity; conditions = 0.5 µM; measurement = inhibition; value = 56%
Structure (SMILES) = O=C(O)C[C@H](NC(=O)[C@H](CC(=O)O)NC(=O)[C@H](CC(=O)O)NC(=O)[C@H](CC(=O)O)NC(=O)[C@H](CC(=O)O)NC(=O)[C@H](CC(=O)O)NC(=O)[C@H](CC(=O)O)NC(=O)[C@H](CC(=O)O)NC(=O)[C@H](CC(=O)O)NC(=O)[C@H](CC(=O)O)NC(=O)[C@H](CC(=O)O)NC(=O)[C@H](CCCCNC(=O)c1ccc(C(=O)NCCOCCOB2BBBBBB3BBBB3B2)cc1)NC(=O)CN1CCN(CC(=O)O)CCN(CC(=O)O)CCN(CC(=O)O)CC1)C(=O)O [gallium-67 labelled]; test system = ddY male mice, muscle; conditions = intravenous, 37 kBq, 1 h; measurement = tissue uptake; value = 0.52 %ID/g
Structure (SMILES) = C[C@H]1CN(c2n[nH]c3nc(N[C@H]4CC[C@H](NS(=O)(=O)CCC(F)(F)F)CC4)ncc23)CCO1; tested on = Filamin-A (Homo sapiens, UniProt P21333); assay = competitor, Kinobeads competition; test system = human cell extract; conditions = 20 µM; scale = baseline: vehicle; measurement = relative abundance; value = 1.18
Structure (SMILES) = CC[C@H](C)[C@H](NC(=O)[C@H](C)NC(=O)[C@H](CCCCN)NC(=O)[C@H](CCCNC(=N)N)NC(=O)[C@H](CCCCN)NC(=O)[C@H](CCCNC(=N)N)NC(=O)[C@H](CCCCN)NC(=O)[C@@H](N)CCCNC(=N)N)C(=O)N[C@@H](CO)C(=O)NCC(=O)N[C@@H](CO)C(=O)N[C@@H](CC(C)C)C(=O)N[C@H](C(=O)N[C@H](C(=O)N[C@@H](CC(C)C)C(=O)N[C@@H](Cc1ccccc1)C(=O)NCC(=O)N[C@@H](Cc1ccc(O)cc1)C(N)=O)[C@@H](C)O)C(C)C; tested on = human erythrocytes; conditions = 400 µM, 1 h; scale = baseline: Triton X-100; measurement = hemolysis; value = 17%
Structure (SMILES) = COc1cccc(-c2n[nH]c(SCc3ccccn3)n2)c1OC; tested on = Salmonella typhimurium; assay = Ames test, plate incorporation; test system = TA98; conditions = 0.016 mg/plate, without S9; measurement = revertant colonies per plate; value = 15
Structure (SMILES) = COc1cc2c(Oc3ccc4[nH]c(C)cc4c3F)ccnc2cc1OCC1(N)CC1; test system = paediatric recurrent refractory sarcoma; conditions = concentration not given, whole group; measurement = grade 3 Diarrhoea; value = 0%
Structure (SMILES) = C[C@@H](O)[C@@H](CO)NC(=O)[C@@H](CCCNC(=N)N)NC(=O)[C@@H]1CCCN1C(=O)[C@@H]1CSSC[C@H](NC(=O)[C@H](Cc2ccccc2)NC(=O)CN2CCN(CC(=O)O)CCN(CC(=O)O)CCN(CC(=O)O)CC2)C(=O)N[C@@H](Cc2ccc(O)cc2)C(=O)N[C@@H](Cc2ccccc2)C(=O)N[C@@H](CCC(N)=O)C(=O)N[C@@H](CC(N)=O)C(=O)N1 [gallium-68 labelled]; test system = healthy Wistar rat, heart; conditions = intravenous, 8 MBq, 60 min, individual animals; measurement = tissue uptake; value = 0.24 %ID/g
Structure (SMILES) = [Cl-].[Cl-].[Pt+2].[Ru+2].c1ccc(-c2nccnc2-c2ccccn2)nc1.c1cnc2c(c1)ccc1cccnc12.c1cnc2c(c1)ccc1cccnc12; tested on = Danio rerio; test system = embryos; conditions = 30 µM, 0 h; measurement = survival rate; value = 100%
Structure (SMILES) = CC(C)CC(=O)OC[C@H]1O[C@@](C#N)(c2ccc3c(N)ncnn23)[C@H](O)[C@@H]1O; tested on = ABCB1 (Homo sapiens, UniProt P08183); assay = basolateral to apical transport; test system = Caco-2; conditions = 9 µM, 2 h, with: zosuquidar 25 µM; measurement = recovery; value = 67%
Structure (SMILES) = CC[C@H](C)[C@H](NC(=O)[C@H](Cc1ccccc1)NC(=O)[C@H](CCC(=O)O)NC(=O)[C@H](CCCNC(=N)N)NC(=O)[C@H](C)NC(=O)[C@H](C)NC(=O)[C@H](CCC(N)=O)NC(=O)[C@H](CCCCNc1c(NCCCCCN(O)C(=O)CCC(=O)NCCCCCN(O)C(=O)CCC(=O)NCCCCCN(O)C(C)=O)c(=O)c1=O)NC(=O)[C@H](CCC(=O)O)NC(=O)[C@H](CC(C)C)NC(=O)[C@H](Cc1ccc(O)cc1)NC(=O)[C@H](CO)NC(=O)[C@H](CO)NC(=O)[C@@H](NC(=O)[C@H](CC(=O)O)NC(=O)[C@H](CO)NC(=O)[C@@H](NC(=O)[C@H](Cc1ccccc1)NC(=O)[C@@H](NC(=O)CNC(=O)[C@H](CCC(=O)O)NC(=O)[C@H](C)NC(=O)CCc1cnc[nH]1)[C@@H](C)O)[C@@H](C)O)C(C)C)C(=O)N[C@@H](C)C(=O)N[C@@H](Cc1c[nH]c2ccccc12)C(=O)N[C@@H](CC(C)C)C(=O)N[C@H](C(=O)N[C@@H](CCCNC(=N)N)C(=O)NCC(=O)N[C@@H](CCCNC(=N)N)C(=O)N[C@@H](CCCCNC(=O)COCCOCCNC(=O)COCCOCCNC(=O)CC[C@H](NC(=O)CCCCCCCCCCCCCCCCC(=O)O)C(=O)O)C(=O)NCC(=O)NCC(=O)N[C@@H](CO)C(=O)N[C@@H](CCCCNc1c(NCCCCCN(O)C(=O)CCC(=O)NCCCCCN(O)C(=O)CCC(=O)NCCCCCN(O)C(C)=O)c(=O)c1=O)C(=O)O)C(C)C; tested on = GLP1R (Homo sapiens, UniProt P43220); assay = cAMP reporter gene, agonist, CRE luciferase; test system = BHK; conditions = without Zr, 1% HSA; measurement = EC50; value = 0.37 nM
Structure (SMILES) = OCc1ncc2n1-c1ccc(Cl)cc1C(c1ccccc1F)=NC2; test system = human, plasma; conditions = 7.5 mg midazolam, day 12, geometric mean, with: amenamevir 400 mg; measurement = AUC(0-inf); value = 39.9 ng·h/mL
Structure (SMILES) = CN1CC[C@@H](c2c(O)cc(O)c3c(=O)cc(-c4ccc(C(F)(F)F)cc4Cl)oc23)[C@@H]1CO; assay = refers to: Thrombocytopenia; test system = relapsed B-cell malignancies or AML; conditions = oral, 100 mg, grade 3-4, continuous dosing; measurement = patients with adverse event; value = 0%
Structure (SMILES) = CO[C@H]1C[C@@H]2CC[C@@H](C)[C@@](O)(O2)C(=O)C(=O)N2CCCC[C@H]2C(=O)O[C@H]([C@H](C)C[C@@H]2CC[C@@H](OC(=O)NCCOCCOCCOCCOCCOCCOCCOCCOCCC(=O)N3CCc4cc(Cn5nc(-c6ccc7oc(N)nc7c6)c6c(N)ncnc65)ccc4C3)[C@H](OC)C2)C[C@@H](O)[C@H](C)/C=C(\C)[C@@H](O)[C@@H](OC)C(=O)[C@H](C)C[C@H](C)/C=C/C=C/C=C/1C; test system = patients with advanced solid tumours; conditions = intravenous, 10 mg weekly, grade 3 or higher; measurement = fatigue incidence; value = 12.5%
Structure (SMILES) = O=C1c2c(O)c(=O)ccn2N([C@@H]2c3ccccc3SCc3c2ccc(F)c3F)[C@@H]2COCCN12; test system = BALB/c mice, plasma; conditions = oral, 1.5 mg/kg baloxavir marboxil, 12 h; measurement = plasma concentration; value = 0.967 ng/mL

A few entries again:
Structure (SMILES) = C[C@H]1CN(c2n[nH]c3nc(N[C@H]4CC[C@H](NS(=O)(=O)CCC(F)(F)F)CC4)ncc23)CCO1; tested on = Filamin-A (Homo sapiens, UniProt P21333); assay = competitor, Kinobeads competition; test system = human cell extract; conditions = 20 µM; scale = baseline: vehicle; measurement = relative abundance; value = 1.18
